Measured values from different studies.
Compare with care: the assays were run in different laboratories. “And” joins repeats or separate records; there may be more than shown. ± marks the error that the study gave. In brackets after ≈: the same amount, converted by molar mass.
lecA: PA-I galactophilic lectin (lecA, Pseudomonas aeruginosa, UniProt Q05097)
KCNQ3/KCNQ2: Voltage-gated potassium channel, KQT; KCNQ2(Kv7.2)/KCNQ3(Kv7.3) (KCNQ3/KCNQ2, Homo sapiens, UniProt O43525+O43526)
lasR: Transcriptional activator protein LasR (lasR, Pseudomonas aeruginosa, UniProt P25084)

| SMILES | target | assay | test system | conditions | scale | endpoint | value |
| --- | --- | --- | --- | --- | --- | --- | --- |
| CC(C)C[C@@H]1NC(=O)[C@H](Cc2ccc(O)cc2)NC(=O)[C@H](CC(N)=O)NC(=O)[C@H](CO)NC(=O)[C@@H](NC(=O)[C@@H]2CCCN2C(=O)[C@H](CC(N)=O)NC(=O)[C@H](Cc2ccc(O)cc2)NC(=O)[C@@H](N)CCCCN)CSC1=O | Accessory gene regulator protein C (Staphylococcus epidermidis, UniProt Q5HMY3) | agr signalling |  | 100 nM |  | activity | inhibited |
| CC(=O)NC(Cc1ccc(Br)c(Cl)c1)C(=O)N[C@@H](C)C(=O)N1CCC[C@H]1C(=O)N1CCC[C@H]1C(=O)N[C@@H](CCC(=O)O)C(=O)N[C@@H](Cc1c[nH]cn1)C(=O)N[C@@H](CO)C(=O)N[C@H](C(=O)N[C@@H](C)C(N)=O)[C@@H](C)OP(=O)(O)O (stereo partly drawn) | Aurora kinase B (AURKB, Homo sapiens, UniProt Q96GD4) | enzyme activity, inhibitor |  | 10 µM |  | inhibition | 1.6% |
| CC[C@H](C)[C@H](NC(C)=O)C(=O)N[C@H]1CSSC[C@@H](C(=O)N[C@H](C(N)=O)[C@@H](C)O)NC(=O)[C@H](CCCNC(=N)N)NC(=O)[C@H](Cc2c[nH]cn2)NC(=O)[C@H](C)NC(=O)CNC(=O)[C@H](Cc2c[nH]c3ccccc23)NC(=O)[C@H](CC(=O)O)NC(=O)[C@H](CCC(N)=O)NC(=O)[C@H](Cc2cc3cccc4ccc5cccc2c5c43)NC(=O)[C@H](C(C)C)NC1=O | Complement C3, C3b fragment (Homo sapiens, UniProt P01024) |  |  | pH 7.4 |  | kon | 760000 ± 130000 M⁻¹ s⁻¹ |
| CC[C@H](C)[C@H](NC(=O)[C@H](Cc1c[nH]cn1)NC(=O)[C@H](CCCCNC(=O)[C@@H](NC(=O)[C@H](CCCCN)NC(=O)[C@H](Cc1ccccc1)NC(=O)[C@H](CCCCNC(=O)[C@H](CC(C)C)NC(=O)[C@@H]1CCCN1C(=O)[C@H](CCCCN)NC(=O)c1ccc(O[C@@H]2O[C@H](CO)[C@H](O)[C@H](O)[C@H]2O)cc1)NC(=O)[C@H](CC(C)C)NC(=O)[C@@H]1CCCN1C(=O)[C@H](CCCCN)NC(=O)c1ccc(O[C@@H]2O[C@H](CO)[C@H](O)[C@H](O)[C@H]2O)cc1)[C@@H](C)CC)NC(=O)[C@@H](NC(=O)[C@H](CCCCN)NC(=O)[C@H](Cc1ccccc1)NC(=O)[C@H](CCCCNC(=O)[C@H](CC(C)C)NC(=O)[C@@H]1CCCN1C(=O)[C@H](CCCCN)NC(=O)c1ccc(O[C@@H]2O[C@H](CO)[C@H](O)[C@H](O)[C@H]2O)cc1)NC(=O)[C@H](CC(C)C)NC(=O)[C@@H]1CCCN1C(=O)[C@H](CCCCN)NC(=O)c1ccc(O[C@@H]2O[C@H](CO)[C@H](O)[C@H](O)[C@H]2O)cc1)[C@@H](C)CC)C(N)=O | lecA | hemagglutination, inhibitor | rabbit erythrocytes | 30 min, 4 °C |  | MIC | 0.78 µM (≈ 3.05 µg/mL) |
| CN(C)C(=O)[C@@H](NC(=O)c1ccccc1-c1ccc(C(F)(F)F)cc1)c1cccc(C(F)(F)F)c1 | NKG2-D type II integral membrane protein, with MICA (KLRK1, Homo sapiens, UniProt P26718) | cellular TR-FRET binding |  |  |  | ligand efficiency | 0.23 |
| O=[N+]([O-])c1ccc(OP(=O)(O)O)cc1 | Alkaline phosphatase PafA (pafA, Elizabethkingia meningoseptica, UniProt Q9KJX5, R164A) | substrate | Chryseobacterium meningosepticum |  |  | Km | 51 µM |
| CCN(Cc1ccccc1)C(=O)CCc1nc(CN2CCN(C(=O)Cc3ccc(OC)c(OC)c3)CC2)no1 | KCNQ3/KCNQ2 | potassium current, whole-cell patch clamp | CHO, stable | 1 µM |  | activation V1/2 | -29.9 ± 1.82 mV |
| CO[P@](=O)(Oc1ccccc1)OC1CCCCC1 | had (Sphingobium sp. TCM1, UniProt A0A077JBW9) | phenyl ester hydrolysis, substrate |  |  |  | Km | 6 ± 2 µM |
| O=P(O)(O)Oc1ccccc1 | Alkaline phosphatase PafA (pafA, Elizabethkingia meningoseptica, UniProt Q9KJX5, T79S) |  | Chryseobacterium meningosepticum | pH 8.0 | relative to: wild type over mutant kcat/KM | relative catalytic efficiency | 5.9 |
| Cn1cc(-c2cccc(CN3CCC4(CC3)COc3c4ccc4c3CN([C@H]3CCC(=O)NC3=O)C4=O)c2)cn1 | DNA-binding protein Ikaros (Homo sapiens, UniProt Q13422) | degrader, HiBiT | HEK293 | 6 h |  | Dmax | < 20% |
| CCCCCc1cn(CC(=O)N[C@H]2CCOC2=O)nn1 | lasR | reporter gene, agonist | Escherichia coli, DH5α pJN105L/pSC11 | 100 µM | relative to: OdDHL at same concentration | activation | 17% |
| CC[C@H](C)[C@H](NC(=O)[C@H](Cc1c[nH]cn1)NC(=O)[C@H](CCCCNC(=O)[C@@H](NC(=O)[C@H](CCCCN)NC(=O)[C@H](Cc1ccccc1)NC(=O)[C@H](CCCCNC(=O)[C@H](CC(C)C)NC(=O)[C@@H]1CCCN1C(=O)[C@H](CCCCN)NC(=O)CCS[C@@H]1O[C@H](CO)[C@H](O)[C@H](O)[C@H]1O)NC(=O)[C@H](CC(C)C)NC(=O)[C@@H]1CCCN1C(=O)[C@H](CCCCN)NC(=O)CCS[C@@H]1O[C@H](CO)[C@H](O)[C@H](O)[C@H]1O)[C@@H](C)CC)NC(=O)[C@@H](NC(=O)[C@H](CCCCN)NC(=O)[C@H](Cc1ccccc1)NC(=O)[C@H](CCCCNC(=O)[C@H](CC(C)C)NC(=O)[C@@H]1CCCN1C(=O)[C@H](CCCCN)NC(=O)CCS[C@@H]1O[C@H](CO)[C@H](O)[C@H](O)[C@H]1O)NC(=O)[C@H](CC(C)C)NC(=O)[C@@H]1CCCN1C(=O)[C@H](CCCCN)NC(=O)CCS[C@@H]1O[C@H](CO)[C@H](O)[C@H](O)[C@H]1O)[C@@H](C)CC)C(N)=O | lecA | binding, isothermal titration calorimetry |  | divided by galactoside copies | relative to: monovalent galactoside KD over ligand KD | relative potency per galactoside | 230 |
| CC(C)P(=S)(NP(=[Se])(C(C)C)C(C)C)C(C)C | Alpha-amylase (Bacillus subtilis, UniProt P00691) | fluorescence quenching |  | concentration not given, 304 K |  | number of binding sites | 0.8 ± 0.04 |
| C[C@@]1(O)CC[C@H]2[C@H](CC[C@@H]3[C@@H]2CC[C@]2(C)[C@@H](C(=O)Cn4cccn4)CC[C@@H]32)C1 | Membrane progesterone receptor epsilon (Paqr9, Mus musculus, UniProt Q6TCG2) | pPKA/PKA immunoblot | MDA-MB-231 expressing Paqr9-GFP | 10 nM, 20 min | relative to: control | PKA activation | 95.5 ± 9.52% |
| CN(C)C(=O)c1cccc(C(F)(F)F)c1 | Amyloid-beta precursor protein, amyloid-beta 1-40 oligomers (APP, Homo sapiens, UniProt P05067) | binding, STD NMR |  | highest STD |  | STD NMR signal | 0% |
| CC[C@H](C)[C@H](NC(=O)CNC(=O)[C@H](CC(=O)O)NC(=O)[C@H](CC(C)C)NC(=O)[C@@H](NC(=O)[C@H](CC(N)=O)NC(=O)[C@H](CCC(N)=O)NC(=O)CNC(=O)[C@H](CC(C)C)NC(=O)[C@H](CCCCN)NC(=O)[C@H](CCC(=O)O)NC(=O)[C@@H](NC(=O)[C@H](CCCCN)NC(=O)[C@H](CCC(=O)O)NC(=O)[C@H](Cc1ccccc1)NC(=O)[C@H](CC(C)C)NC(=O)[C@H](CCCCN)NC(=O)[C@H](Cc1c[nH]c2ccccc12)NC(=O)[C@@H](N)CCC(=O)O)[C@@H](C)CC)[C@@H](C)CC)C(=O)N[C@H](C(=O)N[C@@H](CCCCN)C(=O)N[C@@H](CC(C)C)C(=O)NCC(=O)N1CCC[C@H]1C(=O)N[C@@H](CC(C)C)C(=O)N[C@@H](CC(C)C)C(=O)N[C@@H](C)C(=O)N[C@@H](CC(C)C)C(=O)N[C@@H](CC(C)C)C(=O)NCC(=O)N[C@@H](CCC(N)=O)C(=O)N[C@@H](CC(C)C)C(=O)N[C@H](C(=O)N[C@@H](CCC(N)=O)C(=O)N[C@H](C(=O)N[C@@H](C)C(=O)N[C@@H](CC(C)C)C(N)=O)[C@@H](C)CC)[C@@H](C)O)[C@@H](C)CC | POPC membrane | membrane binding, stopped-flow FRET |  | mole fraction units, room temperature |  | binding free energy | -7 kcal/mol |
| CC[C@H](C)[C@@H]1NC(=O)[C@H](Cc2ccc(O)cc2)NC(=O)[C@@H](N)CSSC[C@@H](C(=O)N2CCC[C@H]2C(=O)N2CCC[C@H]2C(=O)NCC(N)=O)NC(=O)[C@H](CC(N)=O)NC(=O)[C@H](CCC(N)=O)NC1=O | Oxytocin receptor (OXTR, Homo sapiens, UniProt P30559) | membrane hyperpolarisation | CHO cells |  |  | Emax | 5300 RFU |
| COc1ccc(NC(=O)Cn2c(=O)c3ccccc3n(CC(=O)Nc3cc([125I])c(OC)cc3OC)c2=O)cc1 | Sphingosine 1-phosphate receptor 2 (Rattus norvegicus, UniProt P47752) | in vitro autoradiography | Sprague-Dawley rat, STZ-induced diabetes, kidney sections | dose not given, 12 weeks | relative to: control rats | binding increase | 44% and ~44% |
| C=C(NC(=O)C(=C)NC(=O)c1csc(C2=NC3c4csc(n4)C4NC(=O)c5csc(n5)C(C(C)(O)C(C)O)NC(=O)C5CSC(=N5)C(=CC)NC(=O)C(C(C)O)NC(=O)c5csc(n5)C3(CC2)NC(=O)C(C)NC(=O)C(=C)NC(=O)C(C(C)C)NC2C=Cc3c(C(C)O)cc(nc3C2O)C(=O)OC4C)n1)C(N)=O (stereo not drawn) | Proteasome Macropain subunit MB1 (PSMB5, Homo sapiens, UniProt P28074) | chymotrypsin-like activity, inhibitor |  | added: Suc-LLVY-AMC | relative to: thiostrepton A | IC50 fold change | ≤ 6 fold |
| O=C(Cn1cc(C2CC2)nn1)N[C@H]1CCOC1=O | lasR | reporter gene, agonist | Escherichia coli, DH5α pJN105L/pSC11 | 100 µM | relative to: OdDHL at same concentration | activation | 0% |
| CCCCC/C=C\C/C=C\C/C=C\C/C=C\CCCC(=O)NC(CO)C(=O)O (stereo in doubt) | KCNQ3/KCNQ2 | two-electrode voltage clamp | Xenopus oocytes | 10 µM |  | washout time | ~10 min |

A few entries again:
| SMILES | target | assay | test system | conditions | scale | endpoint | value |
| --- | --- | --- | --- | --- | --- | --- | --- |
| CC(=O)NC(Cc1ccc(Br)c(Cl)c1)C(=O)N[C@@H](C)C(=O)N1CCC[C@H]1C(=O)N1CCC[C@H]1C(=O)N[C@@H](CCC(=O)O)C(=O)N[C@@H](Cc1c[nH]cn1)C(=O)N[C@@H](CO)C(=O)N[C@H](C(=O)N[C@@H](C)C(N)=O)[C@@H](C)OP(=O)(O)O (stereo partly drawn) | Aurora kinase B (AURKB, Homo sapiens, UniProt Q96GD4) | enzyme activity, inhibitor |  | 10 µM |  | inhibition | 1.6% |
| CC[C@H](C)[C@H](NC(C)=O)C(=O)N[C@H]1CSSC[C@@H](C(=O)N[C@H](C(N)=O)[C@@H](C)O)NC(=O)[C@H](CCCNC(=N)N)NC(=O)[C@H](Cc2c[nH]cn2)NC(=O)[C@H](C)NC(=O)CNC(=O)[C@H](Cc2c[nH]c3ccccc23)NC(=O)[C@H](CC(=O)O)NC(=O)[C@H](CCC(N)=O)NC(=O)[C@H](Cc2cc3cccc4ccc5cccc2c5c43)NC(=O)[C@H](C(C)C)NC1=O | Complement C3, C3b fragment (Homo sapiens, UniProt P01024) |  |  | pH 7.4 |  | kon | 760000 ± 130000 M⁻¹ s⁻¹ |
| CC[C@H](C)[C@H](NC(=O)[C@H](Cc1c[nH]cn1)NC(=O)[C@H](CCCCNC(=O)[C@@H](NC(=O)[C@H](CCCCN)NC(=O)[C@H](Cc1ccccc1)NC(=O)[C@H](CCCCNC(=O)[C@H](CC(C)C)NC(=O)[C@@H]1CCCN1C(=O)[C@H](CCCCN)NC(=O)c1ccc(O[C@@H]2O[C@H](CO)[C@H](O)[C@H](O)[C@H]2O)cc1)NC(=O)[C@H](CC(C)C)NC(=O)[C@@H]1CCCN1C(=O)[C@H](CCCCN)NC(=O)c1ccc(O[C@@H]2O[C@H](CO)[C@H](O)[C@H](O)[C@H]2O)cc1)[C@@H](C)CC)NC(=O)[C@@H](NC(=O)[C@H](CCCCN)NC(=O)[C@H](Cc1ccccc1)NC(=O)[C@H](CCCCNC(=O)[C@H](CC(C)C)NC(=O)[C@@H]1CCCN1C(=O)[C@H](CCCCN)NC(=O)c1ccc(O[C@@H]2O[C@H](CO)[C@H](O)[C@H](O)[C@H]2O)cc1)NC(=O)[C@H](CC(C)C)NC(=O)[C@@H]1CCCN1C(=O)[C@H](CCCCN)NC(=O)c1ccc(O[C@@H]2O[C@H](CO)[C@H](O)[C@H](O)[C@H]2O)cc1)[C@@H](C)CC)C(N)=O | lecA | hemagglutination, inhibitor | rabbit erythrocytes | 30 min, 4 °C |  | MIC | 0.78 µM (≈ 3.05 µg/mL) |
